# Published values from different studies.
# Numbered parts are unrelated; each lists some results of a single study. Positions count from the first letter of the parent shown.
# UniProt Q9UK32, sequence (whole entry, looked up): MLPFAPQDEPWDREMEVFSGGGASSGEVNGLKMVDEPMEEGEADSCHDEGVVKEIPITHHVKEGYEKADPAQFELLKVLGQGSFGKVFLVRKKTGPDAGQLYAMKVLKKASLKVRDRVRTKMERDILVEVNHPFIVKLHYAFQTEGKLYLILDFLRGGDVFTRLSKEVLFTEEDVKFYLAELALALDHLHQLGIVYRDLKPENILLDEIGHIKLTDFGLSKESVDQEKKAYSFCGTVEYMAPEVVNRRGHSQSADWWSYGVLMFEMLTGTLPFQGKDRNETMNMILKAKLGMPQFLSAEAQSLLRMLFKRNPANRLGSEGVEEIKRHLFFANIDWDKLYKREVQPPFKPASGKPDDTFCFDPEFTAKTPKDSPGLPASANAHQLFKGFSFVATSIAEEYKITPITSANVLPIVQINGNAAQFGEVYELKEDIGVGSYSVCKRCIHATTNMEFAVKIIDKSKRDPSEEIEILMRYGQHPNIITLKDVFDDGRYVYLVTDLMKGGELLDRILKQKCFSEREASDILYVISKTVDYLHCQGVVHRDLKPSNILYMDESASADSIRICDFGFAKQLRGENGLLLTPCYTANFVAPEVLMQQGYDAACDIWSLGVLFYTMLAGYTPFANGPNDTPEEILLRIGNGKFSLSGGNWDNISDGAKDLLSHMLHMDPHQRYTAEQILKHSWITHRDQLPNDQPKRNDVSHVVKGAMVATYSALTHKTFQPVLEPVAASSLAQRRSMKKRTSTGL
# UniProt P36897, sequence (whole entry, looked up): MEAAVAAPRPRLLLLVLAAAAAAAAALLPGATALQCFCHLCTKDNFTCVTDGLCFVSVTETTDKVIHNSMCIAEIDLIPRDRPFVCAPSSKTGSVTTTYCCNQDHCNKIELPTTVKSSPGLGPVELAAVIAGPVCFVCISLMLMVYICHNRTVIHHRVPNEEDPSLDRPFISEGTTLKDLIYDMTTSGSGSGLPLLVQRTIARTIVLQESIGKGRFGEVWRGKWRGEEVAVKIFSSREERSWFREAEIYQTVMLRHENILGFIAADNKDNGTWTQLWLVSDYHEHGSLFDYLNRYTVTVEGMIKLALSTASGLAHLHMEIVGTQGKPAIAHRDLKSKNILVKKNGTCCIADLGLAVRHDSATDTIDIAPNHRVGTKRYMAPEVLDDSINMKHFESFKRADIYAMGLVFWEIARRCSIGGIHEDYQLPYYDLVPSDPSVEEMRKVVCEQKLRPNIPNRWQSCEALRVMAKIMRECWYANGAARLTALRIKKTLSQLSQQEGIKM
# UniProt Q15835, sequence (whole entry, looked up): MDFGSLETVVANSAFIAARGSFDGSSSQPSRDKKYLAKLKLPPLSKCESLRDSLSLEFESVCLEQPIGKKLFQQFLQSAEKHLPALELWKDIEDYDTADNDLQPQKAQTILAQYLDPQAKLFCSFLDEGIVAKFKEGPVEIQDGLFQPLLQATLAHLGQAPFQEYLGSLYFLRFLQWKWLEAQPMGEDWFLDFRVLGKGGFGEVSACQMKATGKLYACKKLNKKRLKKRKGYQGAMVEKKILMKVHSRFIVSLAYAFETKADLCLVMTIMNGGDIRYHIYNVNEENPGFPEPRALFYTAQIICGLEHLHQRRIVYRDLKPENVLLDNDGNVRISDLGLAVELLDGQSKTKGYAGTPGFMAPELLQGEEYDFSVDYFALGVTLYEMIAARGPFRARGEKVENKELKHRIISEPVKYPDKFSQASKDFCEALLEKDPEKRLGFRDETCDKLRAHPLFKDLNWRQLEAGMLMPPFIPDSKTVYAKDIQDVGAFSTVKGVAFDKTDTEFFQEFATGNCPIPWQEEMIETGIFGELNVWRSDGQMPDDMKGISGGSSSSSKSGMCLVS

# Block 1 — technique: universal PBM; form: double-stranded DNA, one strand shown; medium: in vitro; tested at: 600 nM; direction: higher = stronger binding
# Target: Sal-like protein 4, full length isoform A (SALL4, Homo sapiens, UniProt Q9UJQ4, residues 1-1053)
# UniProt Q9UJQ4, sequence (whole entry, looked up): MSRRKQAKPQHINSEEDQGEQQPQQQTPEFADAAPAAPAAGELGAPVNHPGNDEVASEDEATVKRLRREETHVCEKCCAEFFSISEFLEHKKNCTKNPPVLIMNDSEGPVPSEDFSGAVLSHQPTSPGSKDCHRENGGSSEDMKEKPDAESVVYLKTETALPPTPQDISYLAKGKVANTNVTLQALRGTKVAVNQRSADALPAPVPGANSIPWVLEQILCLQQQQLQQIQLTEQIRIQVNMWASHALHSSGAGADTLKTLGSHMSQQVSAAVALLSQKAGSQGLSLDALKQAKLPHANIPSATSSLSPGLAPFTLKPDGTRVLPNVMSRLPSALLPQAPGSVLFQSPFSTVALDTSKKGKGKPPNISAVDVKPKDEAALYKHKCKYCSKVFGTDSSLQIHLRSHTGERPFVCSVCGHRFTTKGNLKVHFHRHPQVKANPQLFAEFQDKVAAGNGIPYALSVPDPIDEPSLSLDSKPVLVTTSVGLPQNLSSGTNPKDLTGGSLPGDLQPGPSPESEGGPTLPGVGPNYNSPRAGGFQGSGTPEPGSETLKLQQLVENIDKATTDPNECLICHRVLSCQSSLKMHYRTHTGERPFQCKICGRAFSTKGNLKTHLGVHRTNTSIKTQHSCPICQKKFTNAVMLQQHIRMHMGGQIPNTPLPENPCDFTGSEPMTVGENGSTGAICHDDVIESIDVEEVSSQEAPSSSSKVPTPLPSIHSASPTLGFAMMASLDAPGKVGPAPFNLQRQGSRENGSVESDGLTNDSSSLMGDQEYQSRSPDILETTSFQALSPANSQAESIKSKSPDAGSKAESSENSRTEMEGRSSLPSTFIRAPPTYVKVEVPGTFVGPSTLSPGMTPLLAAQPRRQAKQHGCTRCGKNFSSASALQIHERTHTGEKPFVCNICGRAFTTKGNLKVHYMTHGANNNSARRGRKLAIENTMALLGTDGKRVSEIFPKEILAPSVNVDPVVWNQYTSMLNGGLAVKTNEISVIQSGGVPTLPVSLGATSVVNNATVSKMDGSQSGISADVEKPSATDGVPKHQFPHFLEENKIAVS
# Notes: 8-mer, flanks averaged, mean of replicates
Sequence,E-score
AGGATCAA,0.0444
ACCGAAGC,-0.231
CCTCTGTA,0.0302
GGGTCCAA,-0.226
ATGAAGAA,0.315
AGATGGCT,0.07
AGAACAGC,-0.0913
CAATCGCG,-0.154

# Block 2 — effect on: cell-free assay; technique: competition with immobilised ligand; tested at: 1 µM
# Compound: Nc1cnc(N2CCc3cc(S(=O)(=O)Nc4c(F)cc(Cl)cc4F)cc(N4CCCC4=O)c32)nc1
target,remaining binding [%]
"Ribosomal protein S6 kinase alpha-6, N-terminal kinase domain (RPS6KA6, Homo sapiens, UniProt Q9UK32)",86
"Mast/stem cell growth factor receptor Kit, autoinhibited (KIT, Homo sapiens, UniProt P10721)",100
"CAMK1G (Homo sapiens, UniProt Q96NX5)",100
"MAPK1 (Homo sapiens, UniProt P28482)",100
"FLT3 (Homo sapiens, UniProt P36888, F691L/ITD)",96
"TGFBR1 (Homo sapiens, UniProt P36897)",100
"MYLK3 (Homo sapiens, UniProt Q32MK0)",100
"TRPM6 (Homo sapiens, UniProt Q9BX84)",93
"GRK1 (Homo sapiens, UniProt Q15835)",100
"eIF-2-alpha kinase GCN2, C-terminal kinase domain (EIF2AK4, Homo sapiens, UniProt Q9P2K8, S808G)",100
"MAK (Homo sapiens, UniProt P20794)",96
"TLK2 (Homo sapiens, UniProt Q86UE8)",79

# Block 3 — target: CRIPT, C-terminal peptide; technique: DHFR complementation, deep sequencing; medium: yeast; reference: wild type; direction: higher = weaker binding
# Notes: single substitutions, model-inferred values
# Starting sequence: ERBIN, PDZ domain 1 (human); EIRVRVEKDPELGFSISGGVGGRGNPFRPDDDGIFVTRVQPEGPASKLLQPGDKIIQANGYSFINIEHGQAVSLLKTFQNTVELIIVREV; partner TKNYKQTSV
Variant,binding free energy change
I66S,0.292 kcal/mol
G43C,0.843 kcal/mol
G69D,-0.525 kcal/mol
L84M,0.0403 kcal/mol
R3K,-0.145 kcal/mol
R5Y,0.0782 kcal/mol
V4R,0.289 kcal/mol
E42L,0.0896 kcal/mol

# Block 4 — effect on: enzyme activity; mode: inhibitor; tested at: 0.5 µM; reference: control
# Target: Proto-oncogene tyrosine-protein kinase receptor Ret (RET, Homo sapiens, UniProt P07949)
# UniProt P07949, sequence (whole entry, looked up): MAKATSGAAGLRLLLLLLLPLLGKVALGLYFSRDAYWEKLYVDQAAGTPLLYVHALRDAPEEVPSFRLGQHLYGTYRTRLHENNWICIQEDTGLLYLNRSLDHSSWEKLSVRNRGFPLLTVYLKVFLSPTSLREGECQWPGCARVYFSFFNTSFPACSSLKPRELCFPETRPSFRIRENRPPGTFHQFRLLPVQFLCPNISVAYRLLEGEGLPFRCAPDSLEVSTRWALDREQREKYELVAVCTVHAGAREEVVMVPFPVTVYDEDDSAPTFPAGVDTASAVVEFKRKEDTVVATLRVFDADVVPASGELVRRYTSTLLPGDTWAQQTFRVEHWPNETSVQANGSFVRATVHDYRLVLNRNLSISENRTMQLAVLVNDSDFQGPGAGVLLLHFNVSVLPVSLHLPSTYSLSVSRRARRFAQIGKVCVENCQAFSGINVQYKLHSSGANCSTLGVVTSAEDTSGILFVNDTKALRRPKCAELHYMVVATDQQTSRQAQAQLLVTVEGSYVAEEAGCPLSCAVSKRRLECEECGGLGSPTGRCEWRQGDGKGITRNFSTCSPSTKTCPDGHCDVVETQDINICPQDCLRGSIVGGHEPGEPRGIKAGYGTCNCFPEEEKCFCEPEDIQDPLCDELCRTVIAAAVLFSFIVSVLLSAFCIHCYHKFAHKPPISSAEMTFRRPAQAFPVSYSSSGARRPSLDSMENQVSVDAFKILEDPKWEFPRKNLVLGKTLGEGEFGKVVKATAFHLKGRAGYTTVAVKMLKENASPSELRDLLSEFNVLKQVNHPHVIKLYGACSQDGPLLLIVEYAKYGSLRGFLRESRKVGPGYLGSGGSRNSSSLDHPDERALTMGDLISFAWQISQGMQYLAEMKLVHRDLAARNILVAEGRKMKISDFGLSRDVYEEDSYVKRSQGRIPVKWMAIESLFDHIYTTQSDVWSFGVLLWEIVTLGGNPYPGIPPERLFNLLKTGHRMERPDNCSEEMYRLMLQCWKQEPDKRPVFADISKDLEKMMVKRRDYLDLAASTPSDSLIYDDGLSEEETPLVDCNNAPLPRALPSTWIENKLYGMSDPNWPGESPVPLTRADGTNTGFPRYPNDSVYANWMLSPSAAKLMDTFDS
Compound,remaining activity [%]
COc1ccc(C(=O)Nc2sc3c(c2C(N)=O)CCCC3)cc1OC,102
O=c1c2ccccc2[nH]c(=S)n1CCN1CCC(=C(c2ccc(F)cc2)c2ccc(F)cc2)CC1,106
COc1ccc(CNC(=O)Nc2ncc([N+](=O)[O-])s2)cc1,97.9
O=S(=O)(c1cccc2cnccc12)N1CCCNCC1,97.8
COc1cc2ncnc(Nc3ccc(F)c(Cl)c3)c2cc1OCCCN1CCOCC1,76.9
Nc1[nH]nc2nc3ccccc3nc12,97.1
Nc1ccc2ncnc(NCCc3ccc(Oc4ccccc4)cc3)c2c1,101
